Assay results from different studies.
Every numbered part comes from another study and shows a few of its results, in no order. Several values in a cell are separate wells, animals, samples, runs or records.
Sequence of UniProt Q04771 (whole entry, looked up): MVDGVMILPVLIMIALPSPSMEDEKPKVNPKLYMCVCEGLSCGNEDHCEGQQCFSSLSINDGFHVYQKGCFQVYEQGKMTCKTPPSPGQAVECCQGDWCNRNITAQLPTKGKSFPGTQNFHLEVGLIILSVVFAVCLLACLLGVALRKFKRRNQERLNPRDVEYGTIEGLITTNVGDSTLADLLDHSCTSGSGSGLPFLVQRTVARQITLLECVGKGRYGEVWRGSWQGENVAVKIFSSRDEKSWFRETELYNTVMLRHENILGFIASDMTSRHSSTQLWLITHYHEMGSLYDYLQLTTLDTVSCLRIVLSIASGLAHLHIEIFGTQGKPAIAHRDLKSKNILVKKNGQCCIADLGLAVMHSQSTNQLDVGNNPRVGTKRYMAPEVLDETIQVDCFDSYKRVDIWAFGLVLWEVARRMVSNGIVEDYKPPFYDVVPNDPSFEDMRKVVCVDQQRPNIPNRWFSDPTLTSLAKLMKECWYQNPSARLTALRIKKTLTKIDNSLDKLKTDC
Sequence of UniProt Q92630 (whole entry, looked up): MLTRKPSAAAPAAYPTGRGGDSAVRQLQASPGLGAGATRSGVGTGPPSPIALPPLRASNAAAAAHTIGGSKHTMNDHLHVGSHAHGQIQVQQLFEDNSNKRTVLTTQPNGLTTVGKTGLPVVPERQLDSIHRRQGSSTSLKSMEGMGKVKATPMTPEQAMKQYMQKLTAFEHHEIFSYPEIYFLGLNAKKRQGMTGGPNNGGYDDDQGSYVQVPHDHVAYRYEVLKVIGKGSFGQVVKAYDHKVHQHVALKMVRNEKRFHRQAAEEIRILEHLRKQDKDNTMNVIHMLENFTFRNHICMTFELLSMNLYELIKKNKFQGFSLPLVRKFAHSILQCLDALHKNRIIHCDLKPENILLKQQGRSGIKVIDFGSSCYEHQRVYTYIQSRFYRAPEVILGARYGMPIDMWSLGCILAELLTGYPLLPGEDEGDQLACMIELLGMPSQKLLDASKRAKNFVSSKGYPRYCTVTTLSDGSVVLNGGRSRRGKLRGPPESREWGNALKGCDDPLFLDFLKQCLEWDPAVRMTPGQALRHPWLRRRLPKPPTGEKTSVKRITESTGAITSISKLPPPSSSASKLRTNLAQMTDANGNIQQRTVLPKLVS
Sequence of UniProt P80192 (whole entry, looked up): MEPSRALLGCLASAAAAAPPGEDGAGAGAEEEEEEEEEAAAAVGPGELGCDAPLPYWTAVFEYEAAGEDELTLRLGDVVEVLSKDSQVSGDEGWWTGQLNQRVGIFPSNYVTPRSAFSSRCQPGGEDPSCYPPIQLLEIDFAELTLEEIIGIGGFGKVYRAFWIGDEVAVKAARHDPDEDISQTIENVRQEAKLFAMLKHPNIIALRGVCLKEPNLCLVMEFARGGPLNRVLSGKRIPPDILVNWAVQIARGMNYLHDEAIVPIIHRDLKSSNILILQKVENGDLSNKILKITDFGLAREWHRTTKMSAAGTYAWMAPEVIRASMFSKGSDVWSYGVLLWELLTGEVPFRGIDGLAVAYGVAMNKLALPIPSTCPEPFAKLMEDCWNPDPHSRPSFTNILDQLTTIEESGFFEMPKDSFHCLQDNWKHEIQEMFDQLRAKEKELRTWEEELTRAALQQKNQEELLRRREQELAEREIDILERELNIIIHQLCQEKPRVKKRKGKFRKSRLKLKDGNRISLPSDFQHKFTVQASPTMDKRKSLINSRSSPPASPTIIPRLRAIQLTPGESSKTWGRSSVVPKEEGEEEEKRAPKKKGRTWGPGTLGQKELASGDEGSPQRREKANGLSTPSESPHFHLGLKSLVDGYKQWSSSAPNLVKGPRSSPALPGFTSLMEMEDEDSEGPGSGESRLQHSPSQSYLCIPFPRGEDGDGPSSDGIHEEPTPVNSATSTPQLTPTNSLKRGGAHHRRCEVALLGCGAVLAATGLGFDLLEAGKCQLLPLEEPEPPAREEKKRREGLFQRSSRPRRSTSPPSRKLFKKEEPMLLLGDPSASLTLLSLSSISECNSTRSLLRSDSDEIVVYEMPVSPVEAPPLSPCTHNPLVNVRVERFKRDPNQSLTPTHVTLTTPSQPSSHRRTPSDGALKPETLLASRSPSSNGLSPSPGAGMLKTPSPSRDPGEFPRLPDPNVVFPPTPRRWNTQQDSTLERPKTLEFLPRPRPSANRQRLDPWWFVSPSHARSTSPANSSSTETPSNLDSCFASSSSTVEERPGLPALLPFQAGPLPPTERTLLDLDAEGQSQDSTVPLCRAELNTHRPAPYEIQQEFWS
Sequence of UniProt P21802 (whole entry, looked up): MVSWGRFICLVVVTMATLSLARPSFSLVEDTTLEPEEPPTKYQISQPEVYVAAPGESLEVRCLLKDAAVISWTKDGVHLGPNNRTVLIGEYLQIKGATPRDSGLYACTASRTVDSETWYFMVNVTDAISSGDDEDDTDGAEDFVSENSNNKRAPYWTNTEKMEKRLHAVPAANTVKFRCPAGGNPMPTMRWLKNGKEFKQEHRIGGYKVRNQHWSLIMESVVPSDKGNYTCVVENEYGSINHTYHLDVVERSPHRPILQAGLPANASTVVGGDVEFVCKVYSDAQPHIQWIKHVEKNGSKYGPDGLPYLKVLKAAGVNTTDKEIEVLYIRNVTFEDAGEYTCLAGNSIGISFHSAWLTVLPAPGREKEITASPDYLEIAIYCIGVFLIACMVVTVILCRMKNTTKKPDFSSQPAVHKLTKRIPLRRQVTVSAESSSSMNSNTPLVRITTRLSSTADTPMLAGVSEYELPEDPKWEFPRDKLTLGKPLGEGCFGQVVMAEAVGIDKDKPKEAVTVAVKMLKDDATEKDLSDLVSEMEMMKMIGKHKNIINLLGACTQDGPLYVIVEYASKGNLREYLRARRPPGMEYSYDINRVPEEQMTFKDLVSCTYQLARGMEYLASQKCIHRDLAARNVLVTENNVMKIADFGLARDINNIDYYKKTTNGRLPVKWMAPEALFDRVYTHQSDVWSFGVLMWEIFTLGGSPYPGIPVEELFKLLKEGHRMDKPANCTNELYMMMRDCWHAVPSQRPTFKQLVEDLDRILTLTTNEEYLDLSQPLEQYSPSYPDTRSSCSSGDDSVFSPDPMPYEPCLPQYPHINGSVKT
Sequence of UniProt Q16620 (whole entry, looked up): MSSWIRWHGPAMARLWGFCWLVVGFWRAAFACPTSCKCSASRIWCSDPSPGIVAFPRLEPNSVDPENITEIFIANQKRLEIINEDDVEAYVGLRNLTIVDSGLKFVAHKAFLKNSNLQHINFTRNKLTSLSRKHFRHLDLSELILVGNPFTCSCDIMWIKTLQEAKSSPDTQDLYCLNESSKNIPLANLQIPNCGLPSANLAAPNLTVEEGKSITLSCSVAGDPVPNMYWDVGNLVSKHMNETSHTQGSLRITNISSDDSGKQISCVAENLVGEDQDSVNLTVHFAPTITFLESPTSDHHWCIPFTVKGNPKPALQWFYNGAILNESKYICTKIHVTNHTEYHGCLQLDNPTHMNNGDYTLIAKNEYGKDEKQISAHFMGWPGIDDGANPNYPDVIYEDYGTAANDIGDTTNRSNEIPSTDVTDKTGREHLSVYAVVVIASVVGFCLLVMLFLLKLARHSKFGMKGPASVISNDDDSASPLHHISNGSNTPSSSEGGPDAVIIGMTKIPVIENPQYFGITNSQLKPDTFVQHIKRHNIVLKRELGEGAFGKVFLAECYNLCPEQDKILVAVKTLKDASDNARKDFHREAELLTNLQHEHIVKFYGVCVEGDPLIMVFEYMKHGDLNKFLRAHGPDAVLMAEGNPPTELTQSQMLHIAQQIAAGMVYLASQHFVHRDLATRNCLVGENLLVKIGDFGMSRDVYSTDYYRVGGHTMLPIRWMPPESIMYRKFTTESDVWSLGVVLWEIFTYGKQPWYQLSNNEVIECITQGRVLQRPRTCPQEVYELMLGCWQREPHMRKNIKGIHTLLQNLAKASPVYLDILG

Set 1 — observed: enzyme activity; action: inhibitor; concentration: 10 µM; quantity: inhibition
Target: Calcium/calmodulin-dependent protein kinase type II subunit alpha (CAMK2A, Homo sapiens, UniProt Q9UQM7)
Sequence of UniProt Q9UQM7 (whole entry, looked up): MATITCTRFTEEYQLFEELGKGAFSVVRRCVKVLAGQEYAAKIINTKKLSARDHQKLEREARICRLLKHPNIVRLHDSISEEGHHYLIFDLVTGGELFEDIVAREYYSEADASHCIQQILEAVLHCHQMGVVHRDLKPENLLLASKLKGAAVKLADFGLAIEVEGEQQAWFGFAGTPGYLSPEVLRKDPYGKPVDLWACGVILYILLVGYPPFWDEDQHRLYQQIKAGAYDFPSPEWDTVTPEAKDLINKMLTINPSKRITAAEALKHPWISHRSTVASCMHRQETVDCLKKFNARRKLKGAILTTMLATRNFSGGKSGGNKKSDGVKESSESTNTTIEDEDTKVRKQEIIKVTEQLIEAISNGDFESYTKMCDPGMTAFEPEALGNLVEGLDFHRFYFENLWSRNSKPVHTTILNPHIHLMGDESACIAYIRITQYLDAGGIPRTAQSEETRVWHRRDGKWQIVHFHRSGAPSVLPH
CO[C@H]1C[C@H](O[C@H]2CC[C@]3(C)[C@H]4CC[C@]5(C)[C@@H](C6=CC(=O)OC6)CC[C@]5(O)[C@@H]4CC[C@]3(O)C2)O[C@H](C)[C@H]1O[C@@H]1O[C@H](CO)[C@@H](O)[C@H](O)[C@H]1O: -14%
O=C(O)c1ccc(=O)[nH]c1: -15%
C=CCc1ccc(OC)cc1: -79%
COc1cc(O)cc(/C=C/c2ccc(O)cc2)c1: -21%
CC(C)=CCc1c(O)cc2c(c1O)C(=O)C[C@@H](c1ccc(O)cc1)O2: -33%
CCCCOC(=O)c1ccccc1C(=O)OCCCC: 32%
COC1=CC(=O)O[C@@H](/C=C/c2ccc3c(c2)OCO3)C1: 21%
CC(=O)OC(C)(C)/C=C/C(=O)[C@](C)(O)[C@H]1[C@H](O)C[C@@]2(C)[C@@H]3CC=C4[C@@H](C=C(O)C(=O)C4(C)C)[C@]3(C)C(=O)C[C@]12C: -25%
C/C=C(\C)C(=O)O[C@@H]1[C@@H](OC(C)=O)[C@]2(C)[C@H](C(C)=O)CC[C@@]23O[C@]32CC[C@H]3C[C@@H](O[C@H]4C[C@@H](OC)[C@H](O[C@@H]5O[C@H](C)[C@@H](O)[C@@H](OC)[C@H]5O)[C@@H](C)O4)CC[C@]3(C)[C@@H]12: 7%

Set 2 — quantity: clonogenic survival
SMILES: CO[C@@H]1[C@@H](OC(N)=O)[C@@H](O)[C@H](Oc2ccc3c(O)c(NC(=O)c4ccc(O)c(CC=C(C)C)c4)c(=O)oc3c2C)OC1(C)C
RPE-1 wild type; 100 µM: 51.4% and 54.4% and 43.6%
RPE-1 wild type; 25 µM: 94.7% and 108% and 103%
RPE-1 BRCA2-/-; 150 µM, unit not given; baseline: untreated: 0.516 and 0.639 and 0.658
RPE-1 BRCA2-/-; 200 µM, unit not given; baseline: untreated: 0 and 0.0325 and 0.0107
RPE-1 BRCA1-/- PARPi-resistant R2; 50 µM, 12 to 14 days: 22.6% and 39.7% and 27.5%
CAPAN-1 BRCA2-corrected; 50 µM: 75.4% and 88.4%
CAPAN-1 (BRCA2-mutant); 200 µM: 20.8% and 16.6%
RPE-1 BRCA2-/-; 10 µM, unit not given; baseline: untreated: 0.872 and 0.837 and 0.966
RPE-1 BRCA2-/-; 75 µM, unit not given; baseline: untreated: 0.752 and 0.857
RPE-1 BRCA1-/- PARPi-resistant R2; 100 µM, 12 to 14 d: 16.7% and 17.9% and 24.8%
CAPAN-1 BRCA2-mutant parental; 100 µM: 52.3% and 37.1%

Set 3 — observed: ligand displacement; concentration: 10 µM; quantity: inhibition
Target: 5-hydroxytryptamine receptor 2C (HTR2C, Homo sapiens, UniProt P28335)
Sequence of UniProt P28335 (whole entry, looked up): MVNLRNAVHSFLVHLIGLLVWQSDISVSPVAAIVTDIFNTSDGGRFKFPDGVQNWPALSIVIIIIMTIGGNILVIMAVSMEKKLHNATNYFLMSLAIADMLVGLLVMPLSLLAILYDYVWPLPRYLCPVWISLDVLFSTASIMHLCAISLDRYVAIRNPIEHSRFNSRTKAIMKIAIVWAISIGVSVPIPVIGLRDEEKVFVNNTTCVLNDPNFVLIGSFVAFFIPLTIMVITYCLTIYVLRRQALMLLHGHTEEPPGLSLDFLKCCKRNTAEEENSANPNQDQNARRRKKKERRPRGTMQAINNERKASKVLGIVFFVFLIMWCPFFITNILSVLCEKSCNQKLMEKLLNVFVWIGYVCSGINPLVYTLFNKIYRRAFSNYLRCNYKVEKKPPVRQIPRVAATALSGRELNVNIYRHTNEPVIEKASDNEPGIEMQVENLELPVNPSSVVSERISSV
CN(C)c1ncnc(-c2ccc3nc(Nc4cc(CN5CCN(C(=O)CC(F)(F)F)CC5)ccn4)[nH]c3c2)c1Cl: 0.02%
N#CN1CC[C@H](C(=O)Nc2nc3c(s2)CN(C(=O)CN=[N+]=[N-])CC3)C1: 18.2%
CCc1ccccc1C(=O)Nc1n[nH]c2c(C)c(F)c(C3C(C#N)=C(C)N(C)C(C)=C3C#N)cc12: 20%
O=c1nc(-c2ccccn2)sc2ccccc12: 12.2%
O=C(NCCCC1CCCCC1)c1ccc(CNC(=O)c2cnn(-c3ccccc3)c2C(F)(F)F)cc1: 6.21%
O=C(N[C@H]1CCCCC/C=C\C2C[C@@]2(C(=O)O)NC(=O)[C@@H]2C[C@@H](Oc3ccncc3)CN2C1=O)OC1CCCC1 (stereo partly shown): 7.99%
CCS(=O)(=O)c1cc2cc(C[C@](O)(CC(C)(C)c3ccc(F)cc3C(N)=O)C(F)(F)F)[nH]c2cn1: 0.64%
CO[C@@H](C)c1c(Nc2ccc([C@H](N(C)C(=O)C3CCS(=O)(=O)CC3)C(F)(F)F)cc2)cnc2cc(Cl)nn12: -4.22%
COc1ccc2c(c1)O[C@@H](c1ccc(OC)c(OC)c1)C[C@H]2NC(=O)C1(c2ccc3c(c2)OC(F)(F)O3)CC1: -16.9%
Cc1cc(C)c(-n2ccn3nc(-c4cccnc4)cc23)cc1NC(=O)c1cc(C#N)cc(S(F)(F)(F)(F)F)c1: 34.5%
O=C(O)[C@H]1[C@H](Cn2nnc3ccccc3c2=O)CC[C@@H]1C(=O)c1ccc(OCCC2CCOCC2)cc1: 22.4%
CC1CCN(c2ccnc(NCc3cn(C)cn3)n2)CC1: 89.2%
CC(C)CC(=O)N1CCc2nc(-c3ccc(Br)cc3)nc(N(C)Cc3ccccc3)c2C1: -6.28%
Cc1ccccc1Oc1cc(-n2c(=O)cc(C(F)(F)F)[nH]c2=O)c2ccccc2c1Cl: 0.89%
CC(=O)C1=C(C)N(c2cccc(C(F)(F)F)c2)C(=O)N[C@H]1c1ccc(C#N)nc1: 29%
COc1ccc2cc(OCC3(C(=O)O)CN(C(=O)c4ccc(F)cc4)C3)ccc2c1: 12.3%
CN(C)CC#Cc1ccc(OCCCc2sc(N3CCc4cccc(C(=O)Nc5nc6ccccc6s5)c4C3)nc2C(=O)O)c(F)c1: 1.97%
O=S(=O)(NC1CCC(c2cc(F)ccc2F)(S(=O)(=O)c2ccc(Cl)cc2)CC1)C(F)(F)F (stereo not shown): 12.3%
O=C(c1ccc(F)cc1)N1CC(COc2ccc(Br)cc2)(C(=O)O)C1: 30.2%
COc1cccc(CNC(=O)c2nc3scc(COCc4ccc(C(=O)O)cc4)c3c(=O)[nH]2)c1: 12.5%
Cc1c(N2CCNCC2)nc2ccc(Br)cc2c1C(=O)NC[C@H](CCC(=O)O)c1ccccc1Cl: 12.7%
NS(=O)(=O)c1cc(NC(=O)C2(c3ccccc3Cl)CC2)ccc1Oc1cccc(Cl)c1: 19.5%
Nc1c(C(=O)NCc2ccc(C(=O)NCCCC3CCCCC3)cc2)cnn1-c1ccccc1: 10%
O=C(Nc1cccnn1)N1CC(CC=Cc2cncc(Oc3ccc(C(F)(F)F)cn3)n2)C1: 1.89%
CN([C@@H]1CCc2c(CC(=O)O)c3ccccc3n2C1)S(=O)(=O)c1ccc(F)cc1: -1.51%

Set 4 — observed: enzyme activity; action: inhibitor; concentration: 0.5 µM; baseline: control; quantity: remaining activity
Compound: COc1ccc2c(c[n+](C)c3c4cc5c(cc4ccc23)OCO5)c1OC
DYRK2 (Homo sapiens, UniProt Q92630): 94.5%
RAF1 (Homo sapiens, UniProt P04049): 96.7%
ACVR1 (Homo sapiens, UniProt Q04771): 93.2%
MAP3K9 (Homo sapiens, UniProt P80192): 98.1%
RIPK2 (Homo sapiens, UniProt O43353): 105%
NTRK2 (Homo sapiens, UniProt Q16620): 104%
PRKD3 (Homo sapiens, UniProt O94806): 99.3%
SGK3 (Homo sapiens, UniProt Q96BR1): 96%
FGFR2 (Homo sapiens, UniProt P21802): 101%
ULK1 (Homo sapiens, UniProt O75385): 109%
